Published values collected from several papers.
Compare with care: the assays were run in different laboratories. ± marks the error that the study gave.

For `CC(C)(O)C(O)Cc1c(O)cc(/C=C/c2ccccc2)cc1O` (stereo not shown), the IC50 was > 25 µg/mL (NF-κB (human); reporter gene, inhibitor; SW1353; together with: PMA).
With `O=C(NO)c1ccc(Cn2cc(Cn3cnc4ccc(I)cc4c3=O)nn2)cc1` the IC50 was 0.337 µM (HDAC; enzyme activity, inhibitor, fluorogenic; HeLa nuclear extract; 30 min, 37 °C).
`CC(C)(CNC(=O)c1cccc(-c2noc(C(F)(F)F)n2)c1)c1coc(-c2ccccc2)n1` gave an IC50 of > 0.8 µM (class IIa HDACs; enzyme activity, inhibitor; multiple cancer cell lines; summary value).
For `NCc1cccc(C2CCN(C(=O)c3cccc(NC(=O)C(=O)C4(O)CCC4)c3)CC2)c1`, the IC50 was 0.439 µM (tryptase, human; enzyme activity, inhibitor; HMC1; 2 h, together with: A23187 1 µM).
With `Cc1cccc(C)c1NC(=O)C1CCN(Cc2ccccc2)C1` (racemic) the IC50 was 5.7 ± 0.1 µM (Nav1.4, Pelophylax lessonae; sodium current, use-dependent blocker, vaseline gap voltage clamp; skeletal muscle fibres; 2 Hz pulse trains).
For `Oc1cccc(CCc2ccccc2)c1`, the IC50 was > 25 µg/mL (NF-κB (human); reporter gene, inhibitor; SW1353; together with: PMA).
For `C#C[C@]1(COP(=O)(O)OP(=O)(O)OP(=O)(O)O)O[C@@H](n2cnc3c(N)nc(F)nc32)C[C@@H]1O`, the half-life was 171 h (human PBMC tumour model; host not given, plasma; oral, 100 mg, single dose, fasted).
`Cc1cccc(C)c1NC(=O)C1CCCCN1Cc1ccccc1` (stereo not shown) gave an IC50 of 36 ± 5.2 µM (Nav1.4, Pelophylax lessonae; sodium current, use-dependent blocker, vaseline gap voltage clamp; skeletal muscle fibres; 10 Hz pulse trains).
`CC(C)=CCc1c(O)cc(/C=C/c2ccccc2)cc1O` has an IC50 of > 25 µg/mL (NF-κB (human); reporter gene, inhibitor; SW1353; together with: PMA).
With `O=C(/C=C/c1ccc(Cn2cc(Cn3cnc4ccc(Br)cc4c3=O)nn2)cc1)NO` the IC50 was 0.635 µM (HDAC; enzyme activity, inhibitor, fluorogenic; HeLa nuclear extract; 30 min, 37 °C).
`NC(=O)c1ccc2c(c1)Oc1ccccc1N2Cc1ccc(C(=O)NO)cc1` has an IC50 of 0.2 ± 0.01 µM (HeLa nuclear HDACs; enzyme activity, inhibitor; together with: Boc-Lys(Ac)-AMC).
For `Cc1ccc(NC(=O)c2ccc(CN3CCN(C)CC3)cc2)cc1Nc1nccc(-c2cncc(-c3oncc3C)c2)n1`, the PGI-S score was 2.2 ± 0.8 (mild-to-moderate Parkinson's disease patients; oral, 50 mg once daily, pre-dose baseline, on anti-Parkinson medication; direction not given).
For `CO[C@@H]1O[C@@H]2COC(C)(C(=O)O)O[C@@H]2[C@H](O)[C@H]1O` (single isomer, unassigned), the IC50 was 0.2 µM (human IgM WEA; precipitation, inhibitor, quantitative precipitin inhibition; together with: agar).
`CC(C)(O)C(O)C(=O)Nc1cccc(C(=O)N2CCC(c3cccc(CN)c3)CC2)c1` (stereo not shown) gave an IC50 of 31.5 µM (tryptase, human; enzyme activity, inhibitor; HMC1; 2 h, together with: A23187 1 µM).
`COc1cc(O)cc(/C=C/c2ccccc2)c1` has an IC50 of 17 µg/mL (NF-κB (human); reporter gene, inhibitor; SW1353; together with: PMA).
With `N=C(N)c1ccc(OCCCCCOc2ccc(C(=N)N)cc2)cc1` the IC50 was > 1000 µM (r(CUG)12 RNA-MBNL1 complex; MBNL1 displacement from r(CUG)12 RNA, inhibitor, qTR-FRET).
For `COc1ccc(/C=C/c2cc(O)cc(O[C@@H]3O[C@H](CO)[C@@H](O)[C@H](O)[C@H]3O)c2)cc1O`, the IC50 was > 25 µg/mL (NF-κB (human); reporter gene, inhibitor; SW1353; together with: PMA).
The viability of `Clc1ccc2cc(-c3ccccc3)[nH]c2c1` is reported as 89.4% (HEK293; cell growth or viability; 50 µM).
`CC(C)[C@H](NC(=O)[C@@H]1CCCN1C(=O)[C@H](CCCNC(=N)N)NC(=O)[C@H](CS)NC(=O)[C@H](Cc1c[nH]c2ccccc12)NC(=O)[C@H](CCCNC(=N)N)NC(=O)[C@@H](Cc1ccccc1)NC(=O)[C@H](Cc1c[nH]cn1)NC(=O)[C@H](CCC(=O)O)NC(=O)[C@H](CS)NC(=O)[C@H](CS)NC(=O)[C@H](CCCCN)NC(=O)[C@@H]1CC(=O)N[C@@H](CCCNC(=N)N)C(=O)N[C@@H](C)C(=O)N[C@@H](CC(=O)O)C(=O)N[C@H](Cc2ccc(O)cc2)C(=O)N1)C(N)=O` [technetium-99m labelled] has a tissue uptake of 0.87 ± 0.21 %ID/g (C57 mice, lung; intravenous, 0.037 MBq, 2 h).
For `CCCC[C@H](NC(C)=O)C(=O)N[C@H]1CCC(=O)NC[C@@H](C(=O)N[C@@H](Cc2c[nH]c3ccccc23)C(N)=O)NC(=O)[C@H](CCCNC(=N)N)NC(=O)[C@@H](Cc2ccccc2)NC(=O)[C@H](Cc2c[nH]cn2)NC1=O`, the AUC(0-t) was 3750 ng·h/mL (female rat, plasma; subcutaneous, 5 mg/kg/day, multiple doses, once daily).
`COc1cc(/C=C/c2ccc(O)cc2)cc(OC)c1` gave an IC50 of > 25 µg/mL (NF-κB (human); reporter gene, inhibitor; SW1353; together with: PMA).
`CC(C)[C@H](NC(=O)[C@@H]1CCCN1C(=O)[C@H](CCCNC(=N)N)NC(=O)[C@H](CS)NC(=O)[C@H](Cc1c[nH]c2ccccc12)NC(=O)[C@H](CCCNC(=N)N)NC(=O)[C@@H](Cc1ccccc1)NC(=O)[C@H](Cc1c[nH]cn1)NC(=O)[C@H](CCC(=O)O)NC(=O)[C@H](CS)NC(=O)[C@H](CS)NC(=O)[C@H](CCCNC(=N)N)NC(=O)[C@@H]1CC(=O)N[C@@H](CCCNC(=N)N)C(=O)N[C@@H](C)C(=O)N[C@@H](CC(=O)O)C(=O)N[C@H](Cc2ccc(O)cc2)C(=O)N1)C(N)=O` [technetium-99m labelled] has a tissue uptake of 74.5 ± 7.3 %ID (C57 mouse, urinary bladder; intravenous, 0.037 MBq, 2 h).
The IC50 of `N=C(N)N` is reported as 2500 µM (neuronal nicotinic acetylcholine receptor, rat; ACh-evoked current, inhibitor, whole-cell voltage clamp; rat intracardiac parasympathetic neurons; pH 7.9, holding -90 mV, together with: 100 µM ACh).
`Cc1c(C)c(NC(=O)C2CCN(Cc3ccccc3)C2)c(C)c(C)c1Cl` (stereo not shown) gave an IC50 of 16.2 ± 1.6 µM (Nav1.4, Pelophylax lessonae; sodium current, use-dependent blocker, vaseline gap voltage clamp; skeletal muscle fibres; 2 Hz pulse trains).
With `Cc1ccc2ncn(Cc3cn(Cc4ccc(/C=C/C(=O)NO)cc4)nn3)c(=O)c2c1` the IC50 was 0.571 µM (HDAC; enzyme activity, inhibitor, fluorogenic; HeLa nuclear extract; 30 min, 37 °C).
`Cc1ccc(-c2cc(CF)nn2-c2ccc(S(N)(=O)=O)cc2)cc1` gave an IC50 of 0.08 µM (COX-2 (mouse); enzyme activity, inhibitor; RAW264.7; 30 min, together with: LPS 200 ng/mL and IFN-gamma 10 U/mL).
With `Cc1ccc2c(=O)n(Cc3cn(Cc4ccc(C(=O)NO)cc4)nn3)cnc2c1` the IC50 was 0.146 µM (HDAC; enzyme activity, inhibitor, fluorogenic; HeLa nuclear extract; 30 min, 37 °C).
`O=C(NO)c1ccc(CN2c3ccccc3Oc3ccc(C(=O)Nc4ccccc4)cc32)cc1` gave an IC50 of 0.11 ± 0.02 µM (HeLa nuclear HDACs; enzyme activity, inhibitor; together with: Boc-Lys(Ac)-AMC).
`CN[C@H]1[C@@H](O)[C@@H](NC)C(=O)[C@H]2O[C@@H]3O[C@H](C)C[C@@H](NC(=O)Cc4ccc(O)cn4)[C@]3(O)O[C@H]12` has an IC50 of 34.7 µg/mL (Mycolicibacterium smegmatis 70S ribosome; cell-free translation, inhibitor, measured: firefly luciferase).
With `O=C(/C=C/c1ccc(Cn2cc(Cn3cnc4ccc(I)cc4c3=O)nn2)cc1)NO` the IC50 was 1.03 µM (HDAC; enzyme activity, inhibitor, fluorogenic; HeLa nuclear extract; 30 min, 37 °C).
With `Cc1cccc(C)c1NC(=O)C1CN(Cc2ccccc2)CCN1` (stereo not shown) the IC50 was 2.5 ± 0.4 µM (Nav1.4, Pelophylax lessonae; sodium current, use-dependent blocker, vaseline gap voltage clamp; skeletal muscle fibres; 10 Hz pulse trains).
For `NCc1cccc(C2CCN(C(=O)c3cccc(OCC(O)C4(O)CCC4)c3)CC2)c1` (stereo not shown), the IC50 was 10.8 µM (tryptase, human; enzyme activity, inhibitor; HMC1; 2 h, together with: A23187 1 µM).
The IC50 of `O=C(NO)c1ccc(Cn2cc(Cn3cnc4ccccc4c3=O)nn2)cc1` is reported as 0.262 µM (HDAC; enzyme activity, inhibitor, fluorogenic; HeLa nuclear extract; 30 min, 37 °C).
`Cc1cc(C)c(C)c(NC(=O)C2CCN(Cc3ccccc3)C2)c1C` (stereo not shown) gave an IC50 of 2.2 ± 0.1 µM (Nav1.4, Pelophylax lessonae; sodium current, use-dependent blocker, vaseline gap voltage clamp; skeletal muscle fibres; 10 Hz pulse trains).
The IC50 of `Oc1cc(O)cc(/C=C/c2ccccc2)c1` is reported as 14.5 µg/mL (NF-κB (human); reporter gene, inhibitor; SW1353; together with: PMA).
`O=C(Nc1ccccc1)C1CCN(Cc2ccccc2)C1` (stereo not shown) has an IC50 of 8.4 ± 0.4 µM (Nav1.4, Pelophylax lessonae; sodium current, use-dependent blocker, vaseline gap voltage clamp; skeletal muscle fibres; 10 Hz pulse trains).
`c1ccc2[nH]c(-c3ccsc3)cc2c1` has a viability of 76% (HEK293; cell growth or viability; 50 µM).
`CC[C@H](C(=O)N1CCCC[C@H]1C(=O)O[C@H](CCc1ccc(OC)c(OC)c1)c1cccc(OCCN2CCOCC2)c1)c1cc(OC)c(OC)c(OC)c1` has an IC50 of 0.0033 µM (YFP-LID fusion; protein degradation, flow cytometry; NIH3T3 expressing YFP-LID).
`O=C(NO)c1ccc(CN2c3ccccc3Oc3cc(-c4ccccc4)ccc32)cc1` has an IC50 of 5.71 ± 2.41 µM (HeLa nuclear HDACs; enzyme activity, inhibitor; together with: Boc-Lys(Ac)-AMC).
The IC50 of `Cc1ccc(S(=O)(=O)N[C@@H](CCCCN)C(=O)CCl)cc1` is reported as 0.8 ± 0.2 µM (E3 Blattella germanica protease; covalent inhibitor; 1 h preincubation, together with: QAR-AMC).
`O=C(NO)c1ccc(Cn2cc(Cn3cnc4ccc(Cl)cc4c3=O)nn2)cc1` gave an IC50 of 0.217 µM (HDAC; enzyme activity, inhibitor, fluorogenic; HeLa nuclear extract; 30 min, 37 °C).
For `O=C(Nc1ccc(Cl)cc1)C1CCN(Cc2ccccc2)C1` (stereo not shown), the IC50 was 20.2 ± 2.1 µM (Nav1.4, Pelophylax lessonae; sodium current, use-dependent blocker, vaseline gap voltage clamp; skeletal muscle fibres; 2 Hz pulse trains).
With `O=C(NO)c1ccc(Cn2cc(Cn3cnc4cc(F)ccc4c3=O)nn2)cc1` the IC50 was 0.513 µM (HDAC; enzyme activity, inhibitor, fluorogenic; HeLa nuclear extract; 30 min, 37 °C).
With `Cc1cccc(C)c1NC(=O)C(C)N` (stereo not shown) the IC50 was > 200 µM (Nav1.4, Pelophylax lessonae; sodium current, use-dependent blocker, vaseline gap voltage clamp; skeletal muscle fibres; 10 Hz pulse trains).
With `N#Cc1ccc2c(c1)Oc1ccccc1N2Cc1ccc(C(=O)NO)cc1` the IC50 was 0.87 ± 0.02 µM (HeLa nuclear HDACs; enzyme activity, inhibitor; together with: Boc-Lys(Ac)-AMC).
For `Oc1cccc(/C=C/c2ccccc2)c1`, the IC50 was > 25 µg/mL (NF-κB (human); reporter gene, inhibitor; SW1353; together with: PMA).

For quick reference, copied from above:
For `O=C(Nc1ccc(Cl)cc1)C1CCN(Cc2ccccc2)C1` (stereo not shown), the IC50 was 20.2 ± 2.1 µM (Nav1.4, Pelophylax lessonae; sodium current, use-dependent blocker, vaseline gap voltage clamp; skeletal muscle fibres; 2 Hz pulse trains).
With `O=C(NO)c1ccc(Cn2cc(Cn3cnc4cc(F)ccc4c3=O)nn2)cc1` the IC50 was 0.513 µM (HDAC; enzyme activity, inhibitor, fluorogenic; HeLa nuclear extract; 30 min, 37 °C).
With `Cc1cccc(C)c1NC(=O)C(C)N` (stereo not shown) the IC50 was > 200 µM (Nav1.4, Pelophylax lessonae; sodium current, use-dependent blocker, vaseline gap voltage clamp; skeletal muscle fibres; 10 Hz pulse trains).
